Results collected from several papers.
Numbered parts are unrelated; each lists some results of a single study. Changes are numbered by the printed parent chain.

Sample 1
Target: CCND2, cyclin fold, Cln2 fusion (human)
Technique: yeast growth competition, sequencing
Medium: yeast
Setting: weak parent motif
Baseline: not given
Direction: higher = stronger binding
Parent: DTL docking peptide (human); PSSMRKICTYFHR
| Change | normalised enrichment score |
| --- | --- |
| R13A | -0.465 |
| R5A | -0.487 |
| H12A | -0.188 |
| F11A | 0.0291 |
| Y10A | -0.684 |
| M4A | -0.218 |
| S2A | -0.63 |

Sample 2
Target: Interferon regulatory factor 5, full length, phosphomimetic (IRF5, Homo sapiens, UniProt Q13568-2, residues 1-514, S451D/S453D/S456D/S462D)
Technique: protein-binding microarray
Molecule type: double-stranded DNA, one strand shown
Medium: in vitro
Concentration: 940 nM top
Setting: 60-bp whole probe
Together with: salmon DNA 0.4 mg/ml
Baseline: random background probes
Direction: higher = stronger binding
Constant ends, left off below: GCCTAGCAC … GTCTTGATTCGCTTGACGCTGCTG
| Strand | fitted relative affinity [z-score] |
| --- | --- |
| TCAACCATCCTGTGTCTTACTGTGCTA | 0.429 |
| TTAGGACTGTGTATCGGTTAGTGCTAG | 1.43 |
| TTAAGTCTCGGTTTCGGTTAGTGCTAG | 11.3 |
| TTAGATCTCCGTATCGATTAGTGCTAG | 1.65 |
| TCAAGCCTCAGTCCTCACACTGTGCTA | 0.029 |
| TCACTTTTCTTTTCTTTACTGTGCTAG | 2.34 |
| GACGATTTCACTTCCGAGACGTGCTAG | 1.32 |
| TCAGTTGTAGGTTTTCTGACTGTGCTA | -0.144 |
| TTAGGTTTCCTTTCCCTTGAGTGCTAG | 2.54 |
| TTAGGACTGGACTATCGGCTAGTGCTA | -0.422 |
| AAGGGTTAAAATTTTGCTTCGTGCTAG | -0.000145 |
| GATTGGTTGAACATGAACTTGTGCTAG | -0.175 |
| GACGGTATCGACTTTCGGCACGTGCTA | 4.63 |
| ACAGAACTCAACTGTCTGCCTGTGCTA | 0.0461 |
| GACGGTATCGGACTCGGGACGTGCTAG | 1.98 |
| GACGGTTTCCTTCTCCGGACGTGCTAG | 2.61 |
| GACGGTTTCGGTCTCGTGACGTGCTAG | 12.7 |
| GACGATCGCAGTATCGAGACGTGCTAG | 1.4 |
| AAATTCTATTCTCTCAATTTGTGCTAG | 2.25 |
| TTAGGTTTCGAAACTGGGTTAGTGCTA | 8.2 |

Sample 3
Target: Histone acetyltransferase KAT6A, winged helix 1, GST fusion (KAT6A, Homo sapiens, UniProt Q92794, residues 1-85)
Technique: protein binding microarray
Molecule type: double-stranded DNA, one strand shown
Medium: in vitro
Concentration: not given
Setting: 8-mer, flanks averaged, mean of 2 arrays, mostly near background
Baseline: not given
Direction: higher = stronger binding
Residues (chain): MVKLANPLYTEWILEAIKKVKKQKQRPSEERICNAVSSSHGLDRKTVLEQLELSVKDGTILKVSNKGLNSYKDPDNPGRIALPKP
| Strand | E-score |
| --- | --- |
| GACGAGGC | -0.0113 |
| CGTCACAC | 0.0202 |
| CACAAAGA | -0.248 |
| ACAGCTCC | -0.143 |
| CGCAATAA | 0.16 |
| CAGCTGTC | -0.176 |
| CGATCTTC | 0.0428 |
| AAAACCTC | -0.0174 |
| GGATCGCC | 0.134 |
| TCACCCAA | -0.303 |
| CGCGGCCC | 0.41 |
| GCCTTGTA | -0.0969 |
| GGTTTAGA | -0.0099 |
| AGGCTTCG | 0.0681 |
| GGTCAATA | -0.107 |
| CCAGTCCA | -0.28 |
| CGATGGGA | 0.111 |
| GAGGGTAC | -0.0781 |
| AGGTAGAC | -0.094 |

Sample 4
Target: Ras GTPase-activating protein-binding protein 1, full length (G3BP1, Homo sapiens, UniProt Q13283)
UniProt Q13283, sequence (whole entry, looked up): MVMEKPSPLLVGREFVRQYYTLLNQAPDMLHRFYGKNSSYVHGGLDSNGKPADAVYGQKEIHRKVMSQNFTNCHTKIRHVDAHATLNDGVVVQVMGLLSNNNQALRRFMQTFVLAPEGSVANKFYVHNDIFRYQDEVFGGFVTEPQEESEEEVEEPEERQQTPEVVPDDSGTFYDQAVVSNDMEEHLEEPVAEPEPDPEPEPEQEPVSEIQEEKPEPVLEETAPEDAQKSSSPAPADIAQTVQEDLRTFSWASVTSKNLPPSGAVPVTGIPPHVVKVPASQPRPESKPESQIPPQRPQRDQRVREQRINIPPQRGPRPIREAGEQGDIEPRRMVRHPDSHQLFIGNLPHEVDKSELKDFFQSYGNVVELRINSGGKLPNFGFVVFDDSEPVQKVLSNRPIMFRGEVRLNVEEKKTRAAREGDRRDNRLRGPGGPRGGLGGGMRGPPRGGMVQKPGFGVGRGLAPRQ
Technique: RNA Bind-n-Seq
Molecule type: RNA
Medium: in vitro
Concentration: 200 nM
Setting: whole 134-nt RNA, ends assumed
Together with: 150 mM KCl
Baseline: input library
Direction: higher = stronger binding
| Strand | log2 enrichment |
| --- | --- |
| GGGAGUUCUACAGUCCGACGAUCUGGCCCUGGUGGCAUGCGGGGAGGCAGAGGUGGCCUCAUGGAUCGUGGUGGUCCCGGUGGAAUGUUCAGAGGUGGCCGUGGUGGAGACAGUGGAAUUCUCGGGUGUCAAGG | 0.173 |
| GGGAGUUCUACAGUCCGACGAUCCACAGACAACACGCACCCACACAGACACAGAGGGAAGGGGUCGGGAUGGGGACAGGGUGCACAGCAGGGCGGGGUAGGACCCCAGCCCCUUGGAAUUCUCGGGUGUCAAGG | 1.88 |
| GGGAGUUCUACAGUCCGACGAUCGCAGGAAGUAAAAACAAAUGGAAAUGCUUCGGAUAAAGGCAGGGGUGGGGGUUGCUAAGGAAAGGGUGGGAUGGGAGUGGGUAAAGAGUUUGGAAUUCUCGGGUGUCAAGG | 0.99 |
| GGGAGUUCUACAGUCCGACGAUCUGGGAGGUGGAUUUUGUUUAUUUUUUUAGCUCAUUUCCAGGGGUGGGAAUUUUUUUUUAAUAUGUGUCUUGAAUAAAGUUGUUUUUGAAAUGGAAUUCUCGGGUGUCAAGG | 0.173 |
| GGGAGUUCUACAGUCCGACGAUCUCCUGUGCUACACAUCGUAUGUACCGAAUCAAACCCCCAAACCCCCCCAAAUUUUUAAAAAAGUAUUAUGUUACGCCGUUCGGAUCUGCAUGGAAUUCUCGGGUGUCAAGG | 0.038 |
| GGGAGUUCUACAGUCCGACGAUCUCCUCCCUGGCUUCAGCCAGUCCCUGACGCUGAGCACUGGCUUCCGAGUCAUCAAGAAGAAGCUGUACAGCUCGGAACAGCUGCUCAUUGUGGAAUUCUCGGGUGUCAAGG | -1.05 |
| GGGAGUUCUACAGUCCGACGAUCAGUCCUGUGCUACACAUCGUAUGUACCGAAUCGGGUUUUUUUGGGUUUGGGAAAGGGAAAGUAUUAUGUUACGCCGUUCGGAUCUGCACUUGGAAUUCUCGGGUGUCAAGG | -0.265 |
| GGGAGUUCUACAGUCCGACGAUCAGUCCUGUGCUACACAUCGUAUGUACCGAAUCGGGGAGGGGAAAAAAAGGGGAGGGGAAAGUAUUAUGUUACGCCGUUCGGAUCUGCACUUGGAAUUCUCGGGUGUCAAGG | 0.673 |
| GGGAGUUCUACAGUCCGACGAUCAUGGACUUGCACAUGAUGAACUGUGAACUUCUAGCCACAUGUAGUGCCCUUGGGUACUUGGAGGGAGACACUUACCAUAAGGAACCAGAUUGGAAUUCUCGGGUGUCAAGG | -0.892 |
| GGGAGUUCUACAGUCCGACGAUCUUGAUGCCCCAGAUGUGGAUGUUCAUGGCCCAGACUGGCACCUGAAGAUGCCUAAGAUGAAAAUGCCCAAGUUCAGCAUGCCUGGCUUCAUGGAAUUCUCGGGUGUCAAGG | 0.697 |
| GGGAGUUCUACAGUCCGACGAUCCAAGUCCUGUGCUACACAUCGUAUGUACCGAAUCGGUUUUUUUGGAAAGGAAAGGAAAGUAUUAUGUUACGCCGUUCGGAUCUGCACUUCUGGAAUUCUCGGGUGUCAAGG | -1.03 |
| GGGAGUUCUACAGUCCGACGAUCGUCCUGUGCUACACAUCGUAUGUACCGAAUCGGGGAGGGGAAAGGGGUUUUUUUGGGGAAAGUAUUAUGUUACGCCGUUCGGAUCUGCACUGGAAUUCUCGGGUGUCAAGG | 0.569 |
| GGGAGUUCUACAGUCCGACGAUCUGCAGCUGCUGGCCGCCUCCUAUGACCUGCACCGCUACUUCUACACGGGUGCCGAGAUCCUGGGCCUCAUCGACGAGAAGCACCGCGAGCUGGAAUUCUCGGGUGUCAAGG | 0.0615 |
| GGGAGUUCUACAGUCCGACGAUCCACAGACAACAAACACCCACACAGACACAGAGGGAAGGGGUUGGGAUGGGGACAGGGUGCACAGCAGGGCGGGGUAGGACCCCAGCCCCUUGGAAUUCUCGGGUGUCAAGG | 2.09 |

Sample 5
Target: RNA binding protein fox-1 homolog 2, RRM domain, GST-SBP tag (RBFOX2, Homo sapiens, UniProt O43251-10, residues 100-194)
Technique: RNA Bind-n-Seq
Molecule type: RNA
Medium: in vitro
Concentration: 365 nM
Setting: natural RNA segment, single round, ends assumed
Baseline: no-protein control
Direction: higher = stronger binding
Target sequence (chain): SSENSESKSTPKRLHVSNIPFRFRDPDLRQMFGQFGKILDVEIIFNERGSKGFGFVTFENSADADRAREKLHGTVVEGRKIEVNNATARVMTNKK
| Strand | RBNS enrichment (R) |
| --- | --- |
| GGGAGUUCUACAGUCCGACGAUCACAUAGUGAGAUCCUAUCUCUAUAAAAAAUCAAAAAUUAGCCAGGCAUGGUGGUGCAUACCUAUAGUCCUGGCUAUUUGGGAGGCUGAGGCAGGAGGAUUGCUUUAGCCCUGGAAUUCUCGGGUGCCAA | 0.335 |
| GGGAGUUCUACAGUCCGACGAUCGUUGUUUUUAGUGAGCAUGUUGUAGUCUCGACUGCAAAGAGAGAGAAUAAACUGCCCACUCAGAAGAUAUGUAAUUUGUAUCGUUGUAUAGUUUUAUUGAUUACACUGAUUGGAAUUCUCGGGUGCCAA | 0.647 |
| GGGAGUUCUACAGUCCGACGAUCUGGAAGCAAGUACUGCAUUUCCUAUGCAACAAAAAAGGAAAAAUAAAAAAUUGCUAAUGCUAUGGAAGCUGUGUCAUCAUUUGCUUUACAGCAUGCCUGGGUGAUUGAGUUGGAAUUCUCGGGUGCCAA | 2.9 |
| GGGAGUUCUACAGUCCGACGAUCUAUGUCUCCGGGGUCACGCAGAGCCGUCAGCCACCACCCCAGCACCCGGCACAUAGGCGUCUCAUAAAAGCCCAUUUUAUGAGAACCAGAGCUGUUUGAGUACCCCGUGUUGGAAUUCUCGGGUGCCAA | 0.56 |
| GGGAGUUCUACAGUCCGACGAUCCAAGGGUUGUCACUUUCCUAGAGGGUGUGAGCGUUCUGCCAGCCACAACCAUGUCUCAGACUCAAGAGCUCCGUCAACAGAGCCUCGGAACUGGCCACUCAAUACAGUCUUGGAAUUCUCGGGUGCCAA | 0.48 |
| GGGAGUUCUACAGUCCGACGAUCAGACCAAGACAGAGCAAGCCAGUGAAGAACAUGAGCAGGAAACAGCUGCUCCUGAGCAUGAAGGAACCCACCCUAAGCCAGUCCUGACAGCUGACAUGCCUCACUCAGAGUGGAAUUCUCGGGUGCCAA | 2.01 |
| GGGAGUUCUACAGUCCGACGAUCACAUUUCUCUAUUUUUUGAAAUACAAUUGCAAUAACUUCAGUCUUUUUACAUUCUUCUGCUGCAUCCAUACAAUGCUCCACUGCUGUUGAGUGUCCUUUAACUGUGGACCUGGAAUUCUCGGGUGCCAA | 0.269 |
| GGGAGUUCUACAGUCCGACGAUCAGGACCCAGAGCAGGCCUGUCCAUGCCAUUCCUUCGCACAGAUGAAACUGAGCUGGGACUGGAAAGGACAGCCCUUGACCUGGGUUCUGGGUAUAAUUUGCACUUUUGAGUGGAAUUCUCGGGUGCCAA | 0.895 |
| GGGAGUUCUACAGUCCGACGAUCUCCUUGAGUUUUCCUGCUGCGAUGCAAUGCUUUUCUAAUCUGCAGUGGCUCUUACAAAACUCUGUUCCCACUCCCUCUCUUGCCGACAAGGGCAACUCACGGGUGCAUGAUGGAAUUCUCGGGUGCCAA | 4.41 |
| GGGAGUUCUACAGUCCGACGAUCAGUCGAUCCCACCAGCCCUCGAUGUGCACAGGCAGUGGGUGUCAAGCUCGGGAAGUGGCUGGCUGGCUGGCUGGCAUGUCUAGACGCCUGGUGAGUUAUCAGCCAGUUAAUGGAAUUCUCGGGUGCCAA | 0.663 |
| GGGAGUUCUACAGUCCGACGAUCUUUUUGGUGUUGAAGGGAAUCAAACUACAUUUGCUGCUUGUGUGCGUGUGCAUUUGUGAACACGUACAGCAUAUCUAUACAAAAUUCUGCUAUAGUGUGAAAAUCAGGGCUGGAAUUCUCGGGUGCCAA | 2.86 |
| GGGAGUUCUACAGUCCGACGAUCCACAUCUCUCACACAGCUGAGAGUCACCUUUCCAGGCGGGCCUGGCCUUGUGUAGAAAGUCUCUGGGAAUGGUGUUACGUGAAAGAGGGAUUCCCGUGUCAAGCCAGUGAUGGAAUUCUCGGGUGCCAA | 0.99 |

Some of these lines once more (sample 2):
| Strand | fitted relative affinity [z-score] |
| --- | --- |
| TTAGGACTGTGTATCGGTTAGTGCTAG | 1.43 |
| TTAAGTCTCGGTTTCGGTTAGTGCTAG | 11.3 |
| TTAGATCTCCGTATCGATTAGTGCTAG | 1.65 |
| TCAAGCCTCAGTCCTCACACTGTGCTA | 0.029 |
| TCACTTTTCTTTTCTTTACTGTGCTAG | 2.34 |
| GACGATTTCACTTCCGAGACGTGCTAG | 1.32 |
